Published values of several laboratories.
A part holds a random share of what one study measured.

Series 1 — cell line: mouse MPNST tumor cells; method: high-content immunofluorescence imaging; measured: nuclear SOX9; tested at: 10 µM; time: 12 h; notes: mean of 2 replicates; baseline: DMSO control; reading: higher = more nuclear SOX9; measurement: nuclear SOX9 intensity
SMILES = NC(=O)c1cn(C2OC(CO)C(O)C2O)c2ncnc(N)c2c1=O (stereo not drawn); value = 79.3 % of DMSO
SMILES = CNCCCC12CCC(c3ccccc31)c1ccccc12; value = 210 % of DMSO
SMILES = CCCC(C(=O)OCCN(CC)CC)(c1ccccc1)c1ccccc1; value = 188 % of DMSO
SMILES = CCCCCCCCCCC[C@@H](C[C@@H]1OC(=O)[C@H]1CCCCCC)OC(=O)[C@H](CC(C)C)NC=O; value = 102 % of DMSO
SMILES = N=C(N)c1ccc(-c2ccc(-c3ccc(C(=N)N)cc3)o2)cc1; value = 70.1 % of DMSO
SMILES = CNc1ccc([N+](=O)[O-])cc1-n1cnc(-c2ccc(C(F)(F)F)cc2)c1; value = 110 % of DMSO
SMILES = COc1ccc(C(=O)NCc2ccc(OCCN(C)C)cc2)cc1OC; value = 108 % of DMSO

Series 2 — species: human; medium: microsomes or S9; tested at: 2 µM; time: 0.5 h; measurement: remaining compound
SMILES = CCC(=O)N1CCN(c2cc(-n3cnc(C)c3C)nc(C)n2)CC1; value = 92.5%
SMILES = Fc1ccc(Cn2nnc3c2ncn2cnnc32)cc1; value = 60.4%
SMILES = O=C(Nc1ccc(-n2cnc3ccccc32)cc1)c1nc2ncccn2n1; value = 73.8%
SMILES = CCOC(=O)CCCc1nc2cc(N)ccc2n1C; value = 1.79%
SMILES = N#Cc1ccccc1COc1ccc2c(c1)OCO2; value = 55.4%
SMILES = CCS(=O)(=O)Nc1cccc(-c2cc(=O)n(-c3ccc(F)c(Cl)c3)nc2C)c1; value = > 100%
SMILES = Cc1ccc(C(=O)C2=CN(c3ccc(N(C)C)cc3)c3ccccc3S2(=O)=O)c(C)c1; value = 4.99%
SMILES = CCc1nc2n(n1)C1(CCCCC1)[C@@H]1CCCC[C@@H]1N2C(=O)CC(C)C; value = 0.254%
SMILES = CCOc1cc(=O)n2c(c1C(=O)NCCCOC(C)C)CCCCC2; value = 75%
SMILES = CS(=O)(=O)NCC1COCCN1C(=O)Nc1ccc2cnccc2c1 (stereo not drawn); value = 89.5%
SMILES = N#Cc1ccc(C(=O)N2CCC(N(Cc3ccccc3)C(=O)c3ccc(C#N)[nH]3)C2)[nH]1 (stereo not drawn); value = 66.1%
SMILES = Cc1cc(C)c(S(=O)(=O)N(C)C2(C)CCS(=O)(=O)C2)c(C)c1 (stereo not drawn); value = 1.4%
SMILES = c1ccc(C(CCNc2ncnc3[nH]cnc23)c2ccccc2)cc1; value = 45.3%
SMILES = Cc1nn(C)c2nc(NCC[C@@H]3CCCN4CCCC[C@H]34)sc12; value = 69.7%
SMILES = Cc1[nH]c(=O)c2ccccc2c1C(=O)OC(C)(C)C; value = 23.5%
SMILES = CN(C)c1cccc2c(S(=O)(=O)NC(CC(=O)O)C(=O)O)cccc12 (stereo not drawn); value = 69.2%

Series 3 — effect on: enzyme activity; mode: inhibitor; tested at: 0.5 µM; baseline: control; measurement: remaining activity
Target: Serine/threonine-protein kinase pim-1 (PIM1, Homo sapiens, UniProt P11309)
Sequence of UniProt P11309 (whole entry, looked up): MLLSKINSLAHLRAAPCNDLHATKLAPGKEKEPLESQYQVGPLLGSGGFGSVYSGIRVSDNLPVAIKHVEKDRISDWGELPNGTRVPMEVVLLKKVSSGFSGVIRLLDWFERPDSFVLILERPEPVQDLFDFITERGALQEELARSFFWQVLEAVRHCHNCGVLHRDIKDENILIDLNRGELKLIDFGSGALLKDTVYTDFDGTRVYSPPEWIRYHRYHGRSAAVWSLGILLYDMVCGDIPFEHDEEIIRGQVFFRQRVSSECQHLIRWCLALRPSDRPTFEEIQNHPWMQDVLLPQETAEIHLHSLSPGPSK
SMILES = O=C(c1cc2cc(O)ccc2[nH]1)c1cc2cc(O)ccc2[nH]1; value = 76.1%
SMILES = O=Nc1c(-c2c(O)[nH]c3cc(Br)ccc23)[nH]c2ccccc12; value = 96.1%
SMILES = COc1cccc(-c2cc(=O)c3ccccc3o2)c1N; value = 93.9%
SMILES = Oc1cccc(-c2nc(N3CCOCC3)c3oc4ncccc4c3n2)c1; value = 91.2%
SMILES = CN(C)S(=O)(=O)c1ccc2c(c1)/C(=C/c1cc3c([nH]1)CCCC3)C(=O)N2; value = 101%
SMILES = COc1ccc(COc2ccc(Cc3cnc(N)nc3N)cc2OC)cc1; value = 104%
SMILES = O=C1Cc2c([nH]c3ccc(Br)cc23)-c2ccccc2N1; value = 96.8%
SMILES = Cc1ccc(S(=O)(=O)/C=C/C#N)cc1; value = 101%
SMILES = O=C1Nc2ccccc2/C1=C\c1c(Cl)[nH]c2ccccc12; value = 88.5%
SMILES = CCCNC(=O)Nc1ccc(Oc2ncnc3cc(OC)c(OC)cc23)cc1Cl; value = 102%

Series 4 — effect on: ligand displacement; method: radioligand; tested at: 10 µM; measurement: inhibition
Target: 5-hydroxytryptamine receptor 1D (HTR1D, Homo sapiens, UniProt P28221)
Sequence of UniProt P28221 (whole entry, looked up): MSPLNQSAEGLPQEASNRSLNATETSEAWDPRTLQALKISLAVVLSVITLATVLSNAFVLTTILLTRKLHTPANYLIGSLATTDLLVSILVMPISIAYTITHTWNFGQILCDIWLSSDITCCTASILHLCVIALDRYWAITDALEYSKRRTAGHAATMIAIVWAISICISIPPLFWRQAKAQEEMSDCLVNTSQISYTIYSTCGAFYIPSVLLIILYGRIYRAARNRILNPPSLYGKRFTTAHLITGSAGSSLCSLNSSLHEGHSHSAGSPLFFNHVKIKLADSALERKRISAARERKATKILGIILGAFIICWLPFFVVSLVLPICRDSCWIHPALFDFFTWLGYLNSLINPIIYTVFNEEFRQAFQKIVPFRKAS
SMILES = COc1cccc(NC(=O)c2nc3scc(CN(C)Cc4ccccc4)c3c(=O)[nH]2)c1; value = -0.959%
SMILES = CS(=O)(=O)c1cc(C2(NC(=O)c3cncc4c3cnn4-c3ccc(F)cc3)CC2)ccn1; value = 14.5%
SMILES = Cc1cc(-n2nc(Cc3cc(F)cc(C(F)(F)F)c3)nc2C)ccc1C(N)=O; value = 12.5%
SMILES = CCOc1cc(N2C3COCC2CN(C(=O)[C@H]2C[C@H](O)CN2c2ccc(Cl)cc2)C3)ccc1Cl; value = -2.08%
SMILES = Cn1nc(C(F)(F)F)cc1-c1cnc(N2CCc3cc(S(=O)(=O)Nc4c(F)cc(Cl)cc4F)cc(N4CCCC4=O)c32)nc1; value = 55.3%
SMILES = CC(=O)N1CCC(c2ccc(C(=O)NC3=NCCN3)cc2C(F)(F)F)CC1; value = 9.64%
SMILES = COCCOc1nc(-c2ccc(Cl)nc2)nc2c1CN(C(=O)c1ncn3ccccc13)CC2; value = 8.09%
SMILES = O=C1CCc2cc(Nc3cc(OC4CCOCC4)c([N+](=O)[O-])cc3Cl)ccc2N1; value = 18.6%
SMILES = COc1cc(-c2cn(C3CCc4ccccc4N(CC(F)(F)F)C3=O)nn2)ccc1-n1ccc(C)n1 (stereo not drawn); value = 11.3%
SMILES = Cc1c(NC(=O)c2cc(C(N)=O)nc3cc(F)ccc23)c(C(F)(F)F)nn1Cc1ccc(C#N)cc1; value = 6.11%
SMILES = C[C@@H]1CN(c2cc(-c3n[nH]c4ccc(OC5(C)CC5)cc34)ncn2)C[C@H](C)O1; value = -7.94%
SMILES = C[C@@H](c1cccc(C#N)c1)n1cc(Cl)cc(C(N)=O)c1=N; value = 3.77%
SMILES = COc1ccc2c(O[C@@H]3C[C@H]4C(=O)N[C@]5(C(=O)O)CC5/C=C\CCCCC[C@H](NC(=O)OC5CCCC5)C(=O)N4C3)cc(-c3csc(NC(=O)C(C)C)n3)nc2c1C (stereo partly drawn); value = 32.5%
SMILES = CO[C@H]1CC[C@H](CNc2ccc(S(=O)(=O)NC(=O)c3ccc(N4CCN(CC5=C(c6ccc(Cl)cc6)CC(C)(C)CC5)CC4)cc3Oc3cnc4[nH]ccc4c3)cc2[N+](=O)[O-])CC1; value = 8.17%
SMILES = Cn1cncc1[C@](O)(COc1ccc(C#N)cc1-c1ccc(OC(F)(F)F)cc1)c1ccc(C#N)cc1; value = -0.932%
SMILES = CN(c1ccnc(CNc2nc(Nc3ccc4c(c3)CC(=O)N4)ncc2C(F)(F)F)n1)S(C)(=O)=O; value = 0.19%
SMILES = CCC(=O)N[C@@H]1CC[C@H](C(=O)N(C)c2ccc(-c3nc4ccccc4o3)cc2)C1; value = -8.27%
SMILES = CS(=O)(=O)NCC[C@H](NC(=O)c1cncc2c1cnn2-c1ccc(F)cc1)c1ccnc(S(C)(=O)=O)c1; value = 38.9%

Some of these lines once more (series 4):
SMILES = O=C1CCc2cc(Nc3cc(OC4CCOCC4)c([N+](=O)[O-])cc3Cl)ccc2N1; value = 18.6%
SMILES = COc1cc(-c2cn(C3CCc4ccccc4N(CC(F)(F)F)C3=O)nn2)ccc1-n1ccc(C)n1 (stereo not drawn); value = 11.3%
SMILES = Cc1c(NC(=O)c2cc(C(N)=O)nc3cc(F)ccc23)c(C(F)(F)F)nn1Cc1ccc(C#N)cc1; value = 6.11%
SMILES = C[C@@H]1CN(c2cc(-c3n[nH]c4ccc(OC5(C)CC5)cc34)ncn2)C[C@H](C)O1; value = -7.94%
SMILES = C[C@@H](c1cccc(C#N)c1)n1cc(Cl)cc(C(N)=O)c1=N; value = 3.77%
SMILES = COc1ccc2c(O[C@@H]3C[C@H]4C(=O)N[C@]5(C(=O)O)CC5/C=C\CCCCC[C@H](NC(=O)OC5CCCC5)C(=O)N4C3)cc(-c3csc(NC(=O)C(C)C)n3)nc2c1C (stereo partly drawn); value = 32.5%
SMILES = CO[C@H]1CC[C@H](CNc2ccc(S(=O)(=O)NC(=O)c3ccc(N4CCN(CC5=C(c6ccc(Cl)cc6)CC(C)(C)CC5)CC4)cc3Oc3cnc4[nH]ccc4c3)cc2[N+](=O)[O-])CC1; value = 8.17%
SMILES = Cn1cncc1[C@](O)(COc1ccc(C#N)cc1-c1ccc(OC(F)(F)F)cc1)c1ccc(C#N)cc1; value = -0.932%
SMILES = CN(c1ccnc(CNc2nc(Nc3ccc4c(c3)CC(=O)N4)ncc2C(F)(F)F)n1)S(C)(=O)=O; value = 0.19%
